Measured values of several laboratories.
Protocols differ between the studies behind these lines. “And” joins repeats or separate records; there may be more than shown. ± marks the error that the study gave.
UniProt Q9NQS5, sequence (whole entry, looked up): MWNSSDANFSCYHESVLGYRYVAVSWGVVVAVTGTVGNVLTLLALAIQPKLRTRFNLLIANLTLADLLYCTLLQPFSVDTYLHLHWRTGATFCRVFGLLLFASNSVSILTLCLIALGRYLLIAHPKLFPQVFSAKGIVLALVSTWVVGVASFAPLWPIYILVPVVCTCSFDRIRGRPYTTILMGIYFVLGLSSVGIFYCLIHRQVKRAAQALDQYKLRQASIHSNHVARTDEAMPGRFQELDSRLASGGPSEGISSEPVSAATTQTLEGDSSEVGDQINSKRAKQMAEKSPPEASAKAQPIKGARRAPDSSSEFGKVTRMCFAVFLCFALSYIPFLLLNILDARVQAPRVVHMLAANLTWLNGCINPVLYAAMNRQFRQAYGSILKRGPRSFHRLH
UniProt Q15370, sequence (whole entry, looked up): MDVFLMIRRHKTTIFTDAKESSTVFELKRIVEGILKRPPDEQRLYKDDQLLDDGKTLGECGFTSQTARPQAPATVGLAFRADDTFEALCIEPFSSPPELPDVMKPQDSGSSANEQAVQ

`Nc1nc2nc[nH]c2c(=S)[nH]1` gave a surviving fraction of 0.952 (HCT-116; clonogenic; 2.5 µM, 10 days).
For `Cc1sc2c(c1C)C(c1ccc(Cl)cc1)=N[C@@H](CC(N)=O)c1nnc(C)n1-2`, the viability was 19.7% (OCI-Ly1; 1 µM, 120 h).
`Nc1ncc(-c2nc(N3CCOCC3)nc(N3CCOCC3)n2)c(C(F)F)n1` has a GI50 of 0.172 µM (SK-N-AS; 72 h).
`COc1c(C)c2c(c(O)c1C/C=C(\C)CCC(=O)O)C(=O)OC2` gave an IC50 of 3.24 µM (SK-N-AS; cell proliferation).
`CO[C@H]1C[C@@H]2CC[C@@H](C)[C@@](O)(O2)C(=O)C(=O)N2CCCC[C@H]2C(=O)O[C@H]([C@H](C)C[C@@H]2CC[C@@H](OC(=O)NCCOCCOCCOCCOCCOCCOCCOCCOCCC(=O)N3CCc4cc(Cn5nc(-c6ccc7oc(N)nc7c6)c6c(N)ncnc65)ccc4C3)[C@H](OC)C2)C[C@@H](O)[C@H](C)/C=C(\C)[C@@H](O)[C@@H](OC)C(=O)[C@H](C)C[C@H](C)/C=C/C=C/C=C/1C` — result for “incidence of Vomiting TRAE”: 0% (patients with advanced solid tumours; intravenous, 1.6 mg/3 mg weekly, any grade).
With `COc1cc(CCC[P+](c2ccccc2)(c2ccccc2)c2ccccc2)c(OC)c2c1OCO2.[I-]` the LC50 was -4.22 log M (HOP-62; SRB).
Under “subjects with drug-related somnolence”, `C[C@]1(CO)Cc2ncn(-c3ccc(C#N)c(Cl)c3)c2C(=O)O1` is recorded as 11.1% (human; 80 mg multiple doses, fasted).
Under “patients with grade 3 ALP elevation”, `COc1cc2c(Oc3ccc4[nH]c(C)cc4c3F)ccnc2cc1OCC1(N)CC1` is recorded as 0% (paediatric refractory sarcoma patients; dose not given).
`COc1cc(C[C@H]2COC(=O)[C@@H]2Cc2ccc(O)c(OC)c2)ccc1O`: PARP cleavage “increased” (neuroblastoma M2 (+); western blot; IC50; relative to: untreated).
`CC[C@H](C)[C@H](NC(=O)[C@H](Cc1ccccc1)NC(=O)[C@H](CCC(=O)O)NC(=O)[C@H](CCCNC(=N)N)NC(=O)[C@H](C)NC(=O)[C@H](C)NC(=O)[C@H](CCC(N)=O)NC(=O)[C@H](CCC(=O)O)NC(=O)[C@H](CCC(=O)O)NC(=O)[C@H](CC(C)C)NC(=O)[C@H](Cc1ccc(O)cc1)NC(=O)[C@H](CO)NC(=O)[C@H](CO)NC(=O)[C@@H](NC(=O)[C@H](CC(=O)O)NC(=O)[C@H](CO)NC(=O)[C@@H](NC(=O)[C@H](Cc1ccccc1)NC(=O)[C@@H](NC(=O)CNC(=O)[C@H](CCC(=O)O)NC(=O)[C@H](C)NC(=O)CCc1c[nH]cn1)[C@@H](C)O)[C@@H](C)O)C(C)C)C(=O)N[C@@H](C)C(=O)N[C@@H](Cc1c[nH]c2ccccc12)C(=O)N[C@@H](CC(C)C)C(=O)N[C@H](C(=O)N[C@@H](CCCNC(=N)N)C(=O)NCC(=O)N[C@@H](CCCNC(=N)N)C(=O)N[C@@H](CCCCNC(=O)COCCOCCNC(=O)COCCOCCNC(=O)CC[C@H](NC(=O)CCCCCCCCCCCCCCCCC(=O)O)C(=O)O)C(=O)NCC(=O)NCC(=O)N[C@@H](CO)C(=O)N[C@@H](CCCCNc1c(NCCCCCN(O)C(=O)CCC(=O)NCCCCCN(O)C(=O)CCC(=O)NCCCCCN(O)C(C)=O)c(=O)c1=O)C(=O)O)C(C)C` [zirconium-89 labelled] gave a tissue uptake of 0.02 %ID/g (ex vivo gamma counting; rat, duodenum content; subcutaneous, 3 nmol/kg, 168 h, together with: [89Zr]-labelled peptide).
The IC50 of `COc1cc(Nc2ncc(F)c(Nc3ccc4c(n3)NC(=O)C(C)(C)O4)n2)cc(OC)c1OC` is reported as greater than 10 µM (neutral sphingomyelinase; enzyme activity, inhibitor).
The remaining binding of `C[C@H]1CN(c2n[nH]c3nc(N[C@H]4CC[C@H](NS(=O)(=O)CCC(F)(F)F)CC4)ncc23)CCO1` is reported as 1.22 (Elongin-B (Homo sapiens, UniProt Q15370); Kinobeads competition, refers to: TCEB2; 20 µM, unit not given; relative to: vehicle).
With `C[C@@H](O)[C@@H](CO)NC(=O)[C@@H](CCCNC(=N)N)NC(=O)[C@@H]1CCCN1C(=O)[C@@H]1CSSC[C@H](NC(=O)[C@H](Cc2ccccc2)NC(=O)CN2CCN(CC(=O)O)CCN(CC(=O)O)CCN(CC(=O)O)CC2)C(=O)N[C@@H](Cc2ccc(O)cc2)C(=O)N[C@@H](Cc2ccccc2)C(=O)N[C@@H](CCC(N)=O)C(=O)N[C@@H](CC(N)=O)C(=O)N1` [gallium-68 labelled] the tissue uptake was 0.02 %ID/g (healthy Wistar rat, small intestine; intravenous, 8 MBq, 120 min, individual animals).
For `CC(C)[C@H](N)C(=O)N1CCC[C@H]1B(O)O`, the viability was 77.5% and 77.3% and 78.8% (EA.hy926 GSDMD knockout; CellTiter-Glo; concentration not given).
With `COCCCn1c(N)c(C(=O)NC2CCCC2)c2nc3ccccc3nc21` the viability was 161% (OCI-Ly1; 0.5 µM, 120 h).
`Cc1cnc2ccc3c(nc(N)n3C)c2n1` — result for “relative colony forming efficiency”: 95 ± 1% (BALB/c 3T3; 50 µM; relative to: solvent control).
For `CC[C@H](C)[C@@H]1NC(=O)[C@@H]2CCCN2C(=O)[C@H](CC(C)C)NC(=O)[C@H](CC(C)C)NC(=O)CNC(=O)[C@@H](NC(=O)[C@@H](NC(=O)[C@H](CC(=O)O)NC(=O)CNC(=O)[C@@H](NC(=O)[C@H](C)NC(=O)CNC(=O)[C@H](CCCCN)NC(=O)[C@H](CC(C)C)NC(=O)[C@H](CC(C)C)NC(=O)[C@H](CCCCN)NC(=O)CNC(=O)[C@@H](NC(=O)[C@@H](N)CC(C)C)C(C)C)C(C)C)C(C)C)CSSC[C@@H](C(=O)O)NC1=O`, “log2 fold change” read 0.775 (RNA-seq, refers to: Casp3; mouse, traumatic brain injury model, frontal cortex and hippocampus; dose not given; relative to: TBI alone).
With `N.N.[Cl][Pt][Cl]` the inhibition was 100% (NAMALWA; cell proliferation, CellTiter-Glo; 10 µM, 72 h).
For `CCN(CC)c1ccc(C=NNC(=O)CSc2nc3ccccc3c(=O)n2Cc2ccc(S(N)(=O)=O)cc2)c(O)c1`, the CC50 was greater than 100 µM (M14; NCI five-dose screen).
For `Nc1ncnc2c1ncn2[C@@H]1O[C@@H]2COP(=O)(O)O[C@H]3[C@@H](O)[C@H](n4cnc5c(=O)[nH]cnc54)O[C@@H]3COP(=O)(O)O[C@H]2[C@H]1O`, the fold enrichment was 8.98 (HFF-1; RNA sequencing, refers to: Reactome chemokine receptor binding; upregulated pathways; relative to: mock).
`Oc1ccc(C2(c3ccc(O)cc3)c3ccccc3-c3ccccc32)cc1` — result for “G2 phase cells”: 14.3 ± 7.3% (HepG2 spheroids; Hoechst flow cytometry; 0.10 µM, 96 h).
For `CN1CCN(C2(CNC3CCN(c4cccc(-c5cc6cc(F)ccc6[nH]5)c4)CC3)CCC2)CC1`, the GI50 was 1.75 µM (HOP-62).
Under “log2 fold change”, `Oc1ccc2c3c1O[C@H]1[C@@H](O)CC[C@@]4(O)[C@@H](C2)N(CC2CCC2)CC[C@]314` is recorded as 0.436 (G-protein coupled receptor 84 (GPR84, Homo sapiens, UniProt Q9NQS5); β-arrestin recruitment, TANGO luminescence; concentration not given; relative to: basal luminescence).
For `O=C1CCP(=S)(c2ccccc2)CC1`, “reduction of cell number” read 94% (HCT-116; trypan blue; IC50, 72 h; relative to: untreated).
With `COc1c(CCC[P+](c2ccccc2)(c2ccccc2)c2ccccc2)cc2c(c1OC)OCO2.[I-]` the LC50 was -4.15 log M (MDA-MB-231; NCI60 SRB).
`CC(C)N1CCC(NC2CCN(c3cccc(-c4cc5cc(F)ccc5[nH]4)c3)CC2)CC1` has a GI50 of 1.65 µM (OVCAR-3).
`CC(c1ccccc1)(c1ccc(O)cc1)c1ccc(O)cc1`: “G2 phase cells” 18.3 ± 4.75% (HepG2 spheroids; Hoechst flow cytometry; 0.1 µM, 24 h).

Some of these lines once more:
For `CCN(CC)c1ccc(C=NNC(=O)CSc2nc3ccccc3c(=O)n2Cc2ccc(S(N)(=O)=O)cc2)c(O)c1`, the CC50 was greater than 100 µM (M14; NCI five-dose screen).
For `CC(C)[C@H](N)C(=O)N1CCC[C@H]1B(O)O`, the viability was 77.5% and 77.3% and 78.8% (EA.hy926 GSDMD knockout; CellTiter-Glo; concentration not given).
`Cc1cnc2ccc3c(nc(N)n3C)c2n1` — result for “relative colony forming efficiency”: 95 ± 1% (BALB/c 3T3; 50 µM; relative to: solvent control).
